Assay results gathered from unrelated publications.
Every numbered part comes from another study and shows a few of its results, in no order.
Sequence of UniProt Q9P286 (whole entry, looked up): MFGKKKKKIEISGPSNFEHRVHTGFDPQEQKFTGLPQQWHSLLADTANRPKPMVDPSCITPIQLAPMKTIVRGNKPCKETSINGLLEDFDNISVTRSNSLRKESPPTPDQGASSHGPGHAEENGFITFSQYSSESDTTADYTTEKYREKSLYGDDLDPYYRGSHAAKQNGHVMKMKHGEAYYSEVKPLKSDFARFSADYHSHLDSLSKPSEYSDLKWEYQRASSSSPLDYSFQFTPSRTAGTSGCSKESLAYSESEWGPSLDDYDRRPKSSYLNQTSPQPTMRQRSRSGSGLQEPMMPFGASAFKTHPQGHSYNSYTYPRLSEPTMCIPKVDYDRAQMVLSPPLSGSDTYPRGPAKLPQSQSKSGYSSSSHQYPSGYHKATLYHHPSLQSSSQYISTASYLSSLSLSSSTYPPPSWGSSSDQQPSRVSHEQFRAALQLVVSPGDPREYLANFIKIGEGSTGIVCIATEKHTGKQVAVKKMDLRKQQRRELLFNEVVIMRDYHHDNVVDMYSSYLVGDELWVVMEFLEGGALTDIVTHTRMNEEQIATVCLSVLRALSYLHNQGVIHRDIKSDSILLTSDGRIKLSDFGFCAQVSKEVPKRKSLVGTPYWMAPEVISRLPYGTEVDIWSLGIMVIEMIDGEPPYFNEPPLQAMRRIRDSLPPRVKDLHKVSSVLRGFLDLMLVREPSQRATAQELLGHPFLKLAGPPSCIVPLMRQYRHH
Sequence of UniProt P32298 (whole entry, looked up): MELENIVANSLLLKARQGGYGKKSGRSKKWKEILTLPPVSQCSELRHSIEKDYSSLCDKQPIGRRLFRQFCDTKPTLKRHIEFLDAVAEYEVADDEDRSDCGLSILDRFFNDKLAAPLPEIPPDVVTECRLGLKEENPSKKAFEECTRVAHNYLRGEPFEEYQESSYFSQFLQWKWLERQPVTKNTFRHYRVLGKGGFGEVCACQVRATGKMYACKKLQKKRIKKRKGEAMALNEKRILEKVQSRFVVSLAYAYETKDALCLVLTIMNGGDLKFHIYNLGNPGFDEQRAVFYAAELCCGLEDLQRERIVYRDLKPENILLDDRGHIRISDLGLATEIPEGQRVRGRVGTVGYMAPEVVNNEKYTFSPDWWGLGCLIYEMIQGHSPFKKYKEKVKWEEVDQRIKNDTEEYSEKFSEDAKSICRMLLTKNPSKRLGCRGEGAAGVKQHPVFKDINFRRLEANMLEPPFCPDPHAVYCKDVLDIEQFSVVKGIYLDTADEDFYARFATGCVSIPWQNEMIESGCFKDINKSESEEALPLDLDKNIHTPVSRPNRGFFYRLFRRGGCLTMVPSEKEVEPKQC
Sequence of UniProt P51812 (whole entry, looked up): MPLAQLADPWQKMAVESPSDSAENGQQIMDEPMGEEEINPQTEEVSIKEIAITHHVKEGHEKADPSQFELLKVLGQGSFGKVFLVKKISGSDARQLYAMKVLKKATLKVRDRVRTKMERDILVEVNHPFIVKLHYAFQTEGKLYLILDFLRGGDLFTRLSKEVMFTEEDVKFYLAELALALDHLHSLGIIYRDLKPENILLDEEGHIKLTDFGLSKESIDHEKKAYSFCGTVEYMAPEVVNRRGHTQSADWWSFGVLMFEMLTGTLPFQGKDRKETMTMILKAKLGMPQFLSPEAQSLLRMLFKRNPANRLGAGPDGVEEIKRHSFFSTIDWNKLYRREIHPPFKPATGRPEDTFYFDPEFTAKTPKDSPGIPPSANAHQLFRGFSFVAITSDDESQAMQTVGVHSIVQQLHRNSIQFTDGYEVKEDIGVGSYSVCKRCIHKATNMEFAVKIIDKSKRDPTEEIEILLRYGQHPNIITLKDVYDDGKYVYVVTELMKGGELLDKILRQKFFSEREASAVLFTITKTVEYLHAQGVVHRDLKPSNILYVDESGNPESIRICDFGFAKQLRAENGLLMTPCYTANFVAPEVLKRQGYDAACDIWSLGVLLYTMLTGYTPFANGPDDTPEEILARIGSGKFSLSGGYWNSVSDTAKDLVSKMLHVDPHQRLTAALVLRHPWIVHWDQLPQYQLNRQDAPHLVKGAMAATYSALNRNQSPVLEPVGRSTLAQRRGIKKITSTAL
Sequence of UniProt P61075 (whole entry, looked up): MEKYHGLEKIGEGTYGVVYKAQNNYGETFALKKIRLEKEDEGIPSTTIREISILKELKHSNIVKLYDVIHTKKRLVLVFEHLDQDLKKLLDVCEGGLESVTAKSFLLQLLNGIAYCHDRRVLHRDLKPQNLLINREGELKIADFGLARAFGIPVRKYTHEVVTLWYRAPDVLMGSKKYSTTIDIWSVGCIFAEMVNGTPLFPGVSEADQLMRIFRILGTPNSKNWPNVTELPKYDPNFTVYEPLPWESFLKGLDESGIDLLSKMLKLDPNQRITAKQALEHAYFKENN
Sequence of UniProt P17948 (whole entry, looked up): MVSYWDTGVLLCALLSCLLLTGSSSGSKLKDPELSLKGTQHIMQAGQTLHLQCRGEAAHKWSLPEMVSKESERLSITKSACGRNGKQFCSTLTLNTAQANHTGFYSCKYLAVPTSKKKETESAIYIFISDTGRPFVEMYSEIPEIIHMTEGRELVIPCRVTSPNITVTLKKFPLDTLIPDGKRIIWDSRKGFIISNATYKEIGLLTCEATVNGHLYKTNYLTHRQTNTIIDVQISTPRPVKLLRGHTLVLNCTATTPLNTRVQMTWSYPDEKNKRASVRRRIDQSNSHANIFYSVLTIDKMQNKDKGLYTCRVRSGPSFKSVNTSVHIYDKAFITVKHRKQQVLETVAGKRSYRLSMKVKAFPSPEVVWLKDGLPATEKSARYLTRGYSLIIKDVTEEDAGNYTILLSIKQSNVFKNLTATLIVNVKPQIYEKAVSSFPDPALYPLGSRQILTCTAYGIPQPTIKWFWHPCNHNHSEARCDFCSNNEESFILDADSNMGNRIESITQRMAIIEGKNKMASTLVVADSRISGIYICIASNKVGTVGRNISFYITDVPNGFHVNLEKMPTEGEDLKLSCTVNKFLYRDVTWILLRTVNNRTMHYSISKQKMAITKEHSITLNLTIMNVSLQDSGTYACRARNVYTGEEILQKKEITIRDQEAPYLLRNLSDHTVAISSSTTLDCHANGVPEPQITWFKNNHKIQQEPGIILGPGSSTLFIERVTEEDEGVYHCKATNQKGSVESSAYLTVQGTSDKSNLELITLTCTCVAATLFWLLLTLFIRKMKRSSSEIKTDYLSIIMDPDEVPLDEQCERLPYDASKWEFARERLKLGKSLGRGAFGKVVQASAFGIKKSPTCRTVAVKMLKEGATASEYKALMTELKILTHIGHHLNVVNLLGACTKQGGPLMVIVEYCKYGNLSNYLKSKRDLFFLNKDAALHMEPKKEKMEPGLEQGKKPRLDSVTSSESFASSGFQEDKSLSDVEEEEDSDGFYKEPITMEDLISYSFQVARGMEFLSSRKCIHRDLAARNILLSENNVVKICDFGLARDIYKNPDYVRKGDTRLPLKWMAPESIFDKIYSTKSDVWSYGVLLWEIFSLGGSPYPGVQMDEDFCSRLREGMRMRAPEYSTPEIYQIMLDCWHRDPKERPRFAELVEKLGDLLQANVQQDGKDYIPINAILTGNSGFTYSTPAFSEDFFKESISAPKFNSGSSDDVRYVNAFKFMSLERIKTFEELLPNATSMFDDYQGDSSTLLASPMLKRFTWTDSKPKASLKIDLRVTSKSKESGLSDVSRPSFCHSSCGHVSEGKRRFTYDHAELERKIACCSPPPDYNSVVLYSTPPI
Sequence of UniProt Q13705 (whole entry, looked up): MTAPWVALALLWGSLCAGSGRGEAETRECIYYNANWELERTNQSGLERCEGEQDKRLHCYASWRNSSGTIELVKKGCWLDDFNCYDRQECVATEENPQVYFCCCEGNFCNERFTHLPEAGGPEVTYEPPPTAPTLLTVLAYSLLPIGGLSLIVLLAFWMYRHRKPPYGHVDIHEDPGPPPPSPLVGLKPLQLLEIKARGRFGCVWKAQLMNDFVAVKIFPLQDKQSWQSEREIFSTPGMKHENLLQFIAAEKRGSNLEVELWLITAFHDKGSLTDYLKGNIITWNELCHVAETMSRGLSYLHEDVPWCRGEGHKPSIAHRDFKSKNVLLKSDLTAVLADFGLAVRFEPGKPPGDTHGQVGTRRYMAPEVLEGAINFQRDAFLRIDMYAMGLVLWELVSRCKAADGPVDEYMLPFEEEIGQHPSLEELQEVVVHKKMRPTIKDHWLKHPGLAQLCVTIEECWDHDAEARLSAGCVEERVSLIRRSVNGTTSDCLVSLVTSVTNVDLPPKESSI
Sequence of UniProt O15264 (whole entry, looked up): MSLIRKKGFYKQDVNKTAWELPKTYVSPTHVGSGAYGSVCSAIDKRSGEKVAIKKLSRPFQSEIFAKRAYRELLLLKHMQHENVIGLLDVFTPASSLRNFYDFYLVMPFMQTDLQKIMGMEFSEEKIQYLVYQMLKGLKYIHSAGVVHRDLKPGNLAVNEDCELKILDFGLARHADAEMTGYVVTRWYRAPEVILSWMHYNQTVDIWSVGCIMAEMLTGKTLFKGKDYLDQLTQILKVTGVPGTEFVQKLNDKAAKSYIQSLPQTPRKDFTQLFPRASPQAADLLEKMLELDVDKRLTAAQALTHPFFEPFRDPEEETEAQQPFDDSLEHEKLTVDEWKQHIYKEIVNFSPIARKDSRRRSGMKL

Study 1 — tested at: 1 µM
Structure (SMILES): CCCCN(CCCC)C(=O)CN1C[C@@H](c2cc(OC)c3c(c2)OCO3)[C@H](C(=O)O)[C@H]1CC(C)(C)CCC
| target | effect on | method | notes | relative to | remaining binding [%] |
| --- | --- | --- | --- | --- | --- |
| ALK tyrosine kinase receptor (ALK, Homo sapiens, UniProt Q9UM73, L1196M) | cell-free assay | competition with immobilised ligand | – | – | 100 |
| Serine/threonine-protein kinase PAK 5 (PAK5, Homo sapiens, UniProt Q9P286) | cell-free assay | competition with immobilised ligand | – | – | 96.6 |
| Vascular endothelial growth factor receptor 1 (FLT1, Homo sapiens, UniProt P17948) | cell-free assay | competition with immobilised ligand | – | – | 100 |
| Ribosomal protein S6 kinase alpha-3, C-terminal kinase domain (RPS6KA3, Homo sapiens, UniProt P51812) | cell-free assay | competition with immobilised ligand | – | – | 85.4 |
| Phosphorylase b kinase gamma catalytic chain, skeletal muscle/heart isoform (PHKG1, Homo sapiens, UniProt Q16816) | cell-free assay | competition with immobilised ligand | – | – | 97.5 |
| Tyrosine-protein kinase JAK3, JH1 (JAK3, Homo sapiens, UniProt P52333) | cell-free assay | competition with immobilised ligand | – | – | 93.6 |
| Receptor-type tyrosine-protein kinase FLT3 (FLT3, Homo sapiens, UniProt P36888, D835V/ITD) | cell-free assay | competition with immobilised ligand | – | – | 97.4 |
| Tyrosine-protein kinase ABL1 (ABL1, Homo sapiens, UniProt P00519, F317I) | – | KINOMEscan | F317I mutant, phosphorylated | control | 94.3 |
| G protein-coupled receptor kinase 4 (GRK4, Homo sapiens, UniProt P32298) | cell-free assay | competition with immobilised ligand | – | – | 95.8 |
| Activin receptor type-2B (ACVR2B, Homo sapiens, UniProt Q13705) | cell-free assay | competition with immobilised ligand | – | – | 85.1 |
| Mitogen-activated protein kinase kinase kinase 12 (MAP3K12, Homo sapiens, UniProt Q12852) | cell-free assay | competition with immobilised ligand | – | – | 89.9 |

Study 2 — Compound: O=C(Nc1ccccc1)Nc1cccc(Oc2ccc3nccn3n2)c1; tested at: 1 µM
| target | method | item | notes | relative to | remaining binding [%] |
| --- | --- | --- | --- | --- | --- |
| Mitogen-activated protein kinase 13 (MAPK13, Homo sapiens, UniProt O15264) | competitive binding | – | p38-delta | – | 100 |
| Serine/threonine-protein kinase MAK (MAK, Homo sapiens, UniProt P20794) | competitive binding panel | – | – | vehicle | 73 |
| Serine/threonine-protein kinase RIO3 (RIOK3, Homo sapiens, UniProt O14730) | competitive binding panel | – | – | vehicle | 85 |
| Ephrin type-A receptor 8 (EPHA8, Homo sapiens, UniProt P29322) | competitive binding panel | – | – | vehicle | 100 |
| Death-associated protein kinase 1 (DAPK1, Homo sapiens, UniProt P53355) | competitive binding panel | – | – | vehicle | 90 |
| Cyclin-dependent kinase 2 homolog (CRK2, Plasmodium falciparum, UniProt P61075) | competitive binding, scanMAX | – | Plasmodium falciparum PK5, 1000 nM | – | 77 |
| Mitogen-activated protein kinase kinase kinase kinase 2 (MAP4K2, Homo sapiens, UniProt Q12851) | competitive binding panel | – | – | vehicle | 100 |
| Mitogen-activated protein kinase kinase kinase 11 (MAP3K11, Homo sapiens, UniProt Q16584) | competitive binding panel | MLK3 | – | vehicle | 100 |
| Cyclin-dependent kinase 13 (CDK13, Homo sapiens, UniProt Q14004) | competitive binding panel | CDC2L5 | – | vehicle | 100 |
| Serine/threonine-protein kinase WNK3 (WNK3, Homo sapiens, UniProt Q9BYP7) | competitive binding panel | – | – | vehicle | 100 |
| Fibroblast growth factor receptor 3 (FGFR3, Homo sapiens, UniProt P22607) | competitive binding panel | – | – | vehicle | 100 |

Study 3 — effect on: enzyme activity; action: inhibitor; tested at: 0.5 µM; relative to: control
Target: Activin receptor type-1-like (ACVRL1, Homo sapiens, UniProt P37023)
Sequence of UniProt P37023 (whole entry, looked up): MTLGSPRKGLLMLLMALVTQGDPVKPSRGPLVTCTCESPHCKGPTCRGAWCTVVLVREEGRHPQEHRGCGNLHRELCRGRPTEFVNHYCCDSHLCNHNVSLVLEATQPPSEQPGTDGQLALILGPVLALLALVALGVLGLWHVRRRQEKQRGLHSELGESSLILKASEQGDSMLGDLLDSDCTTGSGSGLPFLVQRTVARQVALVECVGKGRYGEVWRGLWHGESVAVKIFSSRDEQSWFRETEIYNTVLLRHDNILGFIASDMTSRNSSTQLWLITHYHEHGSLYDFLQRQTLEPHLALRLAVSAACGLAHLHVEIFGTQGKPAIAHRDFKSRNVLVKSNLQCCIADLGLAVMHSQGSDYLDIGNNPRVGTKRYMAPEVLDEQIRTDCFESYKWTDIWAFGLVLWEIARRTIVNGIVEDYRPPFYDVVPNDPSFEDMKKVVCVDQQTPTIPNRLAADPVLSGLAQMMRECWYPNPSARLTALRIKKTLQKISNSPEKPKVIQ
| SMILES | remaining activity [%] |
| --- | --- |
| O=C1NC(=O)C(c2cn(CCCO)c3ncccc23)=C1c1cnccn1 | 105 |
| COc1cc2ncnc(Nc3ccc(Oc4ccccc4)cc3)c2cc1OC | 100 |
| O=c1c2ccccc2[nH]c(=S)n1CCN1CCC(=C(c2ccc(F)cc2)c2ccc(F)cc2)CC1 | 101 |
| O=C(Nc1cccc(Nc2cc(Nc3cccc(C(F)(F)F)c3)ncn2)c1)C1CC1 | 114 |
| Cc1nc(-c2ccccc2)c(-c2ccncc2)o1 | 95.9 |
| CCOC(=O)c1c(C)[nH]c(/C=C2\C(=O)Nc3ccccc32)c1C | 94.8 |
| Oc1ccc(-c2nc(-c3ccncc3)c(-c3ccc(F)cc3)[nH]2)cc1 | 95.4 |
| N#CC(C#N)=C(N)/C(C#N)=C/c1ccc(O)cc1 | 88.8 |
| CC(C)[C@H](CO)Nc1nc(Nc2cc(N)cc(Cl)c2)c2ncn(C(C)C)c2n1 | 109 |
| CO[C@H]1C[C@@H]2CC[C@@H](C)[C@@](O)(O2)C(=O)C(=O)N2CCCC[C@H]2C(=O)O[C@H]([C@H](C)C[C@@H]2CC[C@@H](O)[C@H](OC)C2)CC(=O)[C@H](C)/C=C(\C)[C@@H](O)[C@@H](OC)C(=O)[C@H](C)C[C@H](C)/C=C/C=C/C=C/1C | 97.9 |
| NCCNc1ncc(C(N)=O)c(Nc2cccc(C(F)(F)F)c2)n1 | 99.4 |
| Nc1[nH]nc2nc3ccccc3nc12 | 105 |
| O=C(CCCc1ccc(-c2ccccc2F)cc1)Nc1ccc(O)cc1 | 101 |
| Cc1ccc(NC(=O)c2ccc(CN3CCN(C)CC3)cc2)cc1Nc1nc(-c2cccnc2)cs1 | 103 |
| COc1ccc(OC)c2c(=S)c3ccccc3[nH]c12 | 99 |

Study 4 — host: mouse; sample: microsomes or S9; tested at: 2 µM; time: 0.5 h
| SMILES | remaining compound [%] |
| --- | --- |
| CCOc1ccc(C(C)=O)cc1COc1ncnc2ccc(Br)cc12 | 3.18 |
| COC(=O)c1ccc(-c2nc3c(N)nc(S(C)(=O)=O)nc3n2C)cc1 | 22.8 |
| COCCNC(=O)C(=O)N1CCC(OC(=O)c2ccc(Oc3ccccc3)cc2)C(N2CCN(c3ccc(F)cc3)CC2)C1 (centres unmarked) | 4.99 |
| CCC1=NOC(CNC(=O)c2cc(C)c(CC)n(C)c2=O)C1 (centres unmarked) | 57.6 |
| COC(=O)c1ccc(C(F)(F)F)nc1OC(C)C(=O)Nc1ccccc1 (centres unmarked) | 0.0355 |
| CCCCC/N=c1\n(C)c(=O)nc2sccn12 | 1.82 |
| Cc1cc(OCC(=O)N(C(C)C)C(C)C)ccc1Cl | 0.0857 |
| CCOC(=O)C1C2CN(c3ccc(C(=O)NCCNC(=O)N4CCN(C)CC4)cn3)CC21 (centres unmarked) | 93.1 |
| COc1ccccc1/C=C/c1nc(S(=O)(=O)c2ccccc2)c(N2CCN(C)CC2)o1 | 2.21 |
| CN(CC(=O)Nc1nc2c(F)cc(F)cc2s1)S(C)(=O)=O | 37.7 |

Repeated from above (study 4):
| SMILES | remaining compound [%] |
| --- | --- |
| CN(CC(=O)Nc1nc2c(F)cc(F)cc2s1)S(C)(=O)=O | 37.7 |
| CCC1=NOC(CNC(=O)c2cc(C)c(CC)n(C)c2=O)C1 (centres unmarked) | 57.6 |
| CCCCC/N=c1\n(C)c(=O)nc2sccn12 | 1.82 |
| CCOc1ccc(C(C)=O)cc1COc1ncnc2ccc(Br)cc12 | 3.18 |
